Assay results collected from several papers.
Protocols differ between the studies behind these lines. ± gives the spread as reported.
OPRK1: Kappa-type opioid receptor (OPRK1, Homo sapiens, UniProt P41145)
UniProt P41145, sequence (whole entry, looked up): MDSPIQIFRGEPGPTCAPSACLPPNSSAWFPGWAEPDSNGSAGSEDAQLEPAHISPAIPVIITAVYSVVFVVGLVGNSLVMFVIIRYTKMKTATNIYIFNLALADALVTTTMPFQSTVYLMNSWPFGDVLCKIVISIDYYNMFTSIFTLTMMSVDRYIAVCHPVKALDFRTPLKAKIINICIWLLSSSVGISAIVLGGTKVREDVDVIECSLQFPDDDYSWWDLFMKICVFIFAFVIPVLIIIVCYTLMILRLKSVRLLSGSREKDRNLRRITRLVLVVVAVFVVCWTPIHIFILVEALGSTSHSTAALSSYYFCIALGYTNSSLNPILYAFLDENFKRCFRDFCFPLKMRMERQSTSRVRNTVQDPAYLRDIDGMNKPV

CCCCCCCCCCCCCCCC(=O)N[C@@H](CCC(=O)NCCOCCOCCC(=O)NCCOCCOCCC(=O)NCCCC[C@H](NC(=O)[C@H](CC(=O)O)NC(=O)[C@H](CC(C)C)NC(=O)[C@H](Cc1ccc(O)cc1)NC(=O)[C@H](CCCCN)NC(=O)[C@H](CO)NC(=O)[C@H](Cc1ccc(O)cc1)NC(=O)[C@H](CC(=O)O)NC(=O)[C@H](CO)NC(=O)[C@@H](NC(=O)[C@H](Cc1ccccc1)NC(=O)[C@@H](NC(=O)CNC(=O)[C@H](CCC(N)=O)NC(=O)[C@@H](CO)NC(=O)[C@@H](N)Cc1c[nH]cn1)[C@@H](C)O)[C@@H](C)O)C(=O)N[C@@H](CCCNC(=N)N)C(=O)N[C@@H](CCCNC(=N)N)C(=O)N[C@@H](C)C(=O)N[C@@H](CCC(N)=O)C(=O)N[C@@H](CC(=O)O)C(=O)N[C@@H](Cc1ccccc1)C(=O)N[C@H](C(=O)N[C@@H](CCC(N)=O)C(=O)N[C@@H](Cc1c[nH]c2ccccc12)C(=O)N[C@@H](CC(C)C)C(=O)N[C@@H](CC(C)C)C(=O)N[C@@H](CC(N)=O)C(=O)N[C@H](C(=O)NCC(=O)NCC(=O)N1CCC[C@H]1C(=O)N[C@@H](CO)C(=O)N[C@@H](CO)C(=O)NCC(=O)N[C@@H](C)C(=O)N1CCC[C@H]1C(=O)N1CCC[C@H]1C(=O)N1CCC[C@H]1C(=O)N[C@@H](CO)C(N)=O)[C@@H](C)O)C(C)C)C(=O)O  serum enzyme activity (refers to: CK; Sprague-Dawley rat, male; subcutaneous, 20 µg/kg once daily, 14 days): 622 ± 159 U/L
CC[C@H](C)[C@@H]([C@@H](CC(=O)N1CCC[C@H]1[C@H](OC)[C@@H](C)C(=O)N[C@H](C)[C@@H](O)c1ccccc1)OC)N(C)C(=O)[C@@H](NC(=O)[C@H](C(C)C)N(C)C(=O)OCc1ccc(NC(=O)[C@H](CCCNC(N)=O)NC(=O)[C@@H](NC(=O)Cn2cc(CCC(=O)NCCC(=O)N(C)CC(=O)N(C)CC(=O)N(C)CC(=O)N(C)CC(=O)N(C)CC(=O)N(C)CC(=O)N(C)CC(=O)N(C)CC(=O)N(C)CC(=O)N(C)CC(=O)N[C@@H](C)C(=O)NC3CN(C)Cc4cc5cc(c4)CN(C)CC(C(N)=O)NC(=O)[C@H](C(C)(C)C)NC(=O)[C@H](CC(=O)O)NC(=O)[C@H](Cc4ccc(O)cc4)NC(=O)[C@H](Cc4ccccc4)NC(=O)[C@H](CC(=O)O)NC(=O)[C@H](CCC(=O)O)NC(=O)[C@H](CSC5)NC(=O)[C@@H](C)NC(=O)[C@H](Cc4cccc5ccccc45)NC(=O)[C@H](CCC(=O)O)NC(=O)[C@H](CC(N)=O)NC(=O)[C@@H](C)NC3=O)nn2)C(C)C)cc1)C(C)C (stereo partly shown)  half-life (CD-1 mouse, plasma; intravenous, 3 mg/kg): 42 min
O=C(NC1CCN(c2ncnc3[nH]cnc23)CC1)c1cccc(NS(=O)(=O)c2ccc(C(F)(F)F)cc2)c1  inhibition (monkeypox virus E1/E12; 12.5 µM): 9.01%
CC[C@@H](C)[C@@H](NC(=O)[C@@H](CCCCN)NC(=O)[C@@H](CCCCN)NC(=O)[C@@H](CC(C)C)NC(=O)[C@@H](Cc1c[nH]c2ccccc12)NC(=O)CN)C(=O)NCC(=O)N[C@H](CCCCN)C(=O)N[C@H](CCCCN)C(=O)N[C@@H](C(=O)N[C@H](CCC(=O)O)C(=O)N[C@H](CCCNC(=N)N)C(=O)N[C@@H](C(=O)NCC(=O)N[C@H](CCC(N)=O)C(=O)N[C@H](Cc1c[nH]cn1)C(=O)N[C@@H](C(=O)N[C@H](CCCNC(=N)N)C(=O)N[C@H](CC(=O)O)C(=O)N[C@H](C)C(=O)N[C@@H](C(=O)N[C@@H](C(=O)N[C@H](CCC(N)=O)C(=O)N[C@@H](C(=O)N[C@@H](C(=O)NCC(=O)N[C@@H](C(=O)N[C@H](C)C(=O)N[C@H](CCC(N)=O)C(=O)N[C@H](CCC(N)=O)C(=O)N[C@H](C)C(=O)N[C@H](C)C(=O)N[C@H](CC(N)=O)C(=O)N[C@@H](C(=O)N[C@H](C)C(=O)N[C@H](C)C(=O)N[C@@H](C(=O)N[C@H](CC(C)C)C(=O)N[C@H](CCCCN)C(N)=O)[C@H](C)O)C(C)C)C(C)C)[C@H](C)CC)[C@H](C)O)[C@H](C)CC)[C@H](C)O)[C@H](C)O)C(C)C)[C@H](C)CC  MIC (Pseudomonas aeruginosa; isolate RKI 93/12, CAMHB): > 1020 mg/L
CC(C)N1CCn2cc(C(=O)NCc3ccc(F)cc3F)c(=O)c(O)c2C1=O  EC50 (human immunodeficiency virus 1; single-round vector infection; integrase N155H): 3.6 ± 0.9 nM
CC(C)C[C@H](NC(=O)[C@H](CO[C@@H]1O[C@H](CO)[C@@H](O)[C@H](O)[C@H]1O)NC(=O)[C@H](CCCCN)NC(=O)[C@H](CC(C)C)NC(=O)CNC(=O)[C@H](CCCCN)NC(=O)[C@H](CCC(=O)O)NC(=O)CNC(=O)[C@H](CC(C)C)NC(=O)[C@H](CC(N)=O)NC(=O)[C@@H]1CCCN1C(=O)[C@H](CC(C)C)NC(=O)[C@H](Cc1ccccc1)NC(=O)CNC(=O)[C@H](NC(=O)[C@@H](N)Cc1ccc(O)cc1)[C@H](C)O)C(N)=O  Ki (OPRK1; ligand displacement, radioligand; pH 7.5, cell membranes): 4.4 nM
Cc1cc(/C=C/C#N)cc(C)c1-n1cnc2cnc(Nc3ccc(C#N)cc3)nc21  EC50 (HIV-1; viral replication, single-round infection; RT mutant V106A): 0.6 ± 0.1 nM
Nc1c(C(=O)NCc2ccc(F)cc2F)c(=O)n(O)c2ncccc12  EC50 (HIV-1 vector with IN E92Q; single-round infectivity): 3 ± 1.8 nM
COCC(C)N1CCn2cc(C(=O)NCc3ccc(F)cc3F)c(=O)c(O)c2C1=O (stereo not shown)  EC50 (human immunodeficiency virus 1; single-round vector infection; integrase N155H): 5 ± 0.9 nM
CC[C@H](C)[C@H](NC(=O)[C@H](CCCCN)NC(=O)[C@H](Cc1c[nH]c2ccccc12)NC(=O)[C@H](CC(C)C)NC(=O)[C@H](CC(C)C)NC(=O)[C@H](CC(=O)O)NC(=O)[C@@H](NC(=O)[C@H](CCCNC(=N)N)NC(=O)[C@H](CCC(=O)O)NC(=O)[C@H](CCCNC(=N)N)NC(=O)[C@H](CC(=O)O)NC(=O)[C@H](CC(C)C)NC(C)=O)[C@@H](C)CC)C(=O)N[C@@H](C)C(=O)N[C@@H](CCCNC(=N)N)C(=O)N[C@@H](C)C(=O)NCC(=O)N[C@@H](C)C(=O)N[C@@H](CCCNC(=N)N)C(=O)N[C@@H](CO)C(=O)N[C@@H](C)C(=O)N[C@H](C(=O)NCC(N)=O)C(C)C  membrane partition coefficient (far-UV CD; POPC/POPG/chol 7:2:1 SUV; pH 7.5, 25 °C): 25000 ± 2000
Cc1cc(/C=C/C#N)cc(C)c1Nc1nc(Nc2ccc(C#N)cc2)ncc1N  EC50 (HIV-1; viral replication, single-round infection; RT mutant P236L): 0.2 ± 0.06 nM
CN1CCN(C(=O)N[C@@H](Cc2ccccc2)C(=O)N[C@H](/C=C/S(=O)(=O)c2ccccc2)CCc2ccccc2)CC1  inhibition (cathepsin L human; SARS-CoV-2 spike cleavage at S1' site, inhibitor, SDS-PAGE; 2.5 to 5 µM, 1 h, pH 5.5): inhibited
CC(C)C[C@H](NC(=O)[C@H](CO[C@@H]1O[C@H](CO)[C@@H](O)[C@H](O)[C@H]1O)NC(=O)[C@H](CCCCN)NC(=O)[C@H](CC(C)C)NC(=O)C(C)(C)NC(=O)[C@H](CCCCN)NC(=O)[C@H](CCC(=O)O)NC(=O)[C@H](C)NC(=O)[C@H](CC(C)C)NC(=O)[C@H](CC(N)=O)NC(=O)[C@@H]1CCCN1C(=O)[C@H](CC(C)C)NC(=O)[C@H](Cc1ccccc1)NC(=O)CNC(=O)[C@H](NC(=O)[C@@H](N)Cc1ccc(O)cc1)[C@H](C)O)C(N)=O  Ki (OPRK1; ligand displacement, radioligand; pH 7.5, cell membranes): 2.3 nM

A few entries again:
CC(C)C[C@H](NC(=O)[C@H](CO[C@@H]1O[C@H](CO)[C@@H](O)[C@H](O)[C@H]1O)NC(=O)[C@H](CCCCN)NC(=O)[C@H](CC(C)C)NC(=O)CNC(=O)[C@H](CCCCN)NC(=O)[C@H](CCC(=O)O)NC(=O)CNC(=O)[C@H](CC(C)C)NC(=O)[C@H](CC(N)=O)NC(=O)[C@@H]1CCCN1C(=O)[C@H](CC(C)C)NC(=O)[C@H](Cc1ccccc1)NC(=O)CNC(=O)[C@H](NC(=O)[C@@H](N)Cc1ccc(O)cc1)[C@H](C)O)C(N)=O  Ki (OPRK1; ligand displacement, radioligand; pH 7.5, cell membranes): 4.4 nM
Cc1cc(/C=C/C#N)cc(C)c1-n1cnc2cnc(Nc3ccc(C#N)cc3)nc21  EC50 (HIV-1; viral replication, single-round infection; RT mutant V106A): 0.6 ± 0.1 nM
